Measurements of several laboratories.
Compare with care: the assays were run in different laboratories. Several values in a cell are separate wells, animals, samples, runs or records. ± marks the error that the study gave.
Chain of UniProt P16234 (whole entry, looked up): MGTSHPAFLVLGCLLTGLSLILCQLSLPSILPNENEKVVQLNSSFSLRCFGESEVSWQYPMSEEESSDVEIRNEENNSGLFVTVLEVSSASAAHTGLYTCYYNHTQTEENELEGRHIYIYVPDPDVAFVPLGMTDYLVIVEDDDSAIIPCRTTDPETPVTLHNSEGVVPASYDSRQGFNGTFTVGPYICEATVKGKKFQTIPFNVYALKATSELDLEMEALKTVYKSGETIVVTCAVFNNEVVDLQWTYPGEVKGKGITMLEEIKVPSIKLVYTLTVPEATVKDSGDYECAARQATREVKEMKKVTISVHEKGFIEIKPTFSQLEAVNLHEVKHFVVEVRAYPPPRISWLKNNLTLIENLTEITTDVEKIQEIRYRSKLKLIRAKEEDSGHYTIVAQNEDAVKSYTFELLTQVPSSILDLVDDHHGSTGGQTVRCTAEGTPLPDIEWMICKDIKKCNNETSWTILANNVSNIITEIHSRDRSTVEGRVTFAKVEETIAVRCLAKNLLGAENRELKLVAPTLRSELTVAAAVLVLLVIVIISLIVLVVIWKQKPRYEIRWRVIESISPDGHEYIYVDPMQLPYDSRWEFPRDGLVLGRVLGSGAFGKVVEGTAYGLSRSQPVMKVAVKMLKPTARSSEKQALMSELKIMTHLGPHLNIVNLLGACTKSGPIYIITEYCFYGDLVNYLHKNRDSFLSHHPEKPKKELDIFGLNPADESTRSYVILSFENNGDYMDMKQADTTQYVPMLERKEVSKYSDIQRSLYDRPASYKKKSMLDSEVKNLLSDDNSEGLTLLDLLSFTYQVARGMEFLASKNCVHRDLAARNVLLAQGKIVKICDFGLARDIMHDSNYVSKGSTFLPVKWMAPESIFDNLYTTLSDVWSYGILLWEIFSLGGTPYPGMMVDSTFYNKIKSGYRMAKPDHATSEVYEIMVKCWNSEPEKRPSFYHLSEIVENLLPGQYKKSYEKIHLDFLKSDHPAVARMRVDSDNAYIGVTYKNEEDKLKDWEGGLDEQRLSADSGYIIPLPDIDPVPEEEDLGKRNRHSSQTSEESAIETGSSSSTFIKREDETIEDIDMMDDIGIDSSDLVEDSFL
Chain of UniProt O94921 (whole entry, looked up): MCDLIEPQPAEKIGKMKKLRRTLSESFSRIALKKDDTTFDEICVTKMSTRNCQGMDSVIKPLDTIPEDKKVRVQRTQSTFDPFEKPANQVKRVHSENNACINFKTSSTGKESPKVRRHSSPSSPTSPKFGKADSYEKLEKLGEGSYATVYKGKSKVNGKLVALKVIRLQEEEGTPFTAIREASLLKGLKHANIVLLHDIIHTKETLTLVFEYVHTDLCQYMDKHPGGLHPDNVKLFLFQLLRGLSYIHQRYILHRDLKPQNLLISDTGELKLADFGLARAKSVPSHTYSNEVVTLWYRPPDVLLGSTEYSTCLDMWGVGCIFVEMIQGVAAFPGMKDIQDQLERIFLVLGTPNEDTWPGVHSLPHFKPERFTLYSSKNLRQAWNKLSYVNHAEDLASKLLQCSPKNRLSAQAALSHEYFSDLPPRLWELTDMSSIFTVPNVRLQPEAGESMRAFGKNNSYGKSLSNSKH

| Compound | target or system | test | system | setting | how to read | quantity | result |
| --- | --- | --- | --- | --- | --- | --- | --- |
| Cc1cc(-c2ccc3ccccc3c2)nnc1NCCN1CCN(C)CC1 | Caco-2 | bidirectional permeability | – | added: 1.0 µM valspodar | – | P-gp substrate classification | negative |
| Cc1ccc(NS(=O)(=O)c2c(C(=O)N3CCCCCC3)c(C)n(C)c2C)c(Cl)c1 | human cells | – | – | 3.704 µM, 60 h | – | viability | 94.9% |
| CNC(=O)C[C@H](Cc1ccc(F)cc1)NC(=O)[C@@H](Cc1ccc(Cl)cc1Cl)NC(=O)[C@H](N)Cc1ccccc1C#N | Huh-7-ACE2 | CellTiter-Glo | – | 12.5 µM, 48 h, unit not given | relative to: DMSO | viability | 1.01 and 0.969 |
| CC[C@H](C)[C@H](NC(=O)[C@H](CO)NC(=O)[C@H](Cc1ccc(O)cc1)NC(=O)[C@H](Cc1ccc(O)cc1)NC(=O)[C@H](CC(N)=O)NC(=O)CNC(=O)[C@H](CO)NC(=O)[C@H](Cc1ccc(O)cc1)NC(=O)[C@H](CO)NC(=O)[C@H](CO)NC(=O)[C@H](CC(N)=O)NC(=O)COCCOCCNC(=O)CN1CCN(CC(=O)O)CCN(CC(=O)O)CCN(CC(=O)O)CC1)C(=O)N[C@@H](CC(C)C)C(N)=O [copper-64 labelled] | – | dynamic PET | tamoxifen-induced PDAC mouse model, metastases | 0.4 min, CLDN4-expressing tumours | – | maximum metastasis uptake | 27.1 %IA/cc |
| N=C(N)NCCC[C@H](NC(=O)[C@H](CCCNC(=N)N)NC(=O)[C@H](CCCNC(=N)N)NC(=O)[C@H](CCC(N)=O)NC(=O)[C@H](CCCNC(=N)N)NC(=O)[C@H](CCCNC(=N)N)NC(=O)[C@H](CCCCN)NC(=O)[C@H](CCCCN)NC(=O)[C@H](CCCNC(=N)N)NC(=O)CNC(=O)[C@H](Cc1ccc(O)cc1)NC(=O)[C@H](Cc1ccccc1)NC(=O)[C@H](Cc1ccccc1)NC(=O)[C@H](Cc1ccccc1)NC(=O)Cc1ccc2ccccc2c1)C(=O)O | RAW264.7 | flow cytometry | – | FITC-labelled compound, added: amiloride 3 mM, 1 h pretreatment | relative to: control | cellular internalization | decreased |
| CCOc1ccc(CN2CC[C@H]2C(=O)NC)cc1-c1cccc(C(=O)NC[C@@H]2COC(C)(C)O2)c1 | Huh-7-ACE2 | CellTiter-Glo | – | 3.125 µM, 48 h, unit not given | relative to: DMSO | viability | 0.846 and 0.862 and 0.918 |
| c1ccc(CCNC2CCCc3c2[nH]c2ccc(-c4ccccc4)cc32)cc1 (stereo not shown) | A549 | – | – | 50 µM, 23 h | – | non-viable cells | 84.2 ± 10.5% |
| COc1cc(/C=C/c2ccc3c(c2)[C@@H](c2cc(O)cc(O)c2)[C@H](c2ccc(O)cc2)O3)cc(OC)c1 | Calu-3 | – | – | 1 (unit not given) | – | CC50 | 759 µM |
| O=C1NC(=O)c2c1c1cc(F)c[n+]3c1c1c2c2cc(O)ccc2[n]1[Ru-4]312([N]=C=S)[S+]3CC[S+]1CC[S+]2CC3 (stereo not shown) | PDGFRA (Homo sapiens, UniProt P16234) | enzyme activity | – | 100 nM, human enzyme, added: 10 µM ATP | relative to: untreated | remaining activity | 113% |
| CC(C)(C)C(=O)OCOP(=O)(OCOC(=O)C(C)(C)C)C1CCCN(O)C1=O (stereo not shown) | SK-MEL-5 | – | – | – | – | CC50 | 12 µM |
| CC(C)C[C@@H]1NC(=O)[C@H](C(C)C)NC(=O)[C@@H]2CCCN2C(=O)[C@H](C(C)C)NC(=O)[C@H](Cc2ccccc2)NC(=O)CSCCNC(=O)[C@H](Cc2ccccc2)N(C)C(=O)[C@H](CC(C)C)NC(=O)[C@H](Cc2cccc3ccccc23)NC1=O | LLC-PK1 | – | Caco-2 | – | – | Papp A→B | 0.01 ×10⁻⁶ cm/s |
| CN(C)CCCNC(=O)[C@@H]1NC(=O)[C@@H]2Cc3ccc(cc3)Oc3cc4cc(c3O)-c3ccc5c(c[nH]c5c3)C[C@@H](NC(=O)C(NC(=O)CCCCCN)c3ccc(O)cc3)C(=O)N[C@H](c3ccc(O)cc3)C(=O)N[C@H]4C(=O)N[C@@H](C(=O)N2C)c2ccc(cc2)Oc2cc1ccc2O (stereo partly shown) | human red blood cells | – | – | 0.5 µg/mL, 1 h, 37 °C, 1% DMSO | – | hemolysis | 0% |
| O=C(c1ccc(-c2ccc3ncnc(Nc4ccc(OCc5cccc(F)c5)c(Cl)c4)c3c2)cc1)N1CCOCC1 | NIH 3T3 | PrestoBlue | – | 96 h | – | TC50 | 0.81 µM |
| CNC(=O)C[C@H](Cc1ccccc1)NC(=O)[C@@H](Cc1ccc(Cl)cc1Cl)NC(=O)[C@H](N)Cc1ccccc1C#N | Huh-7-ACE2 | CellTiter-Glo | – | 6.25 µM, 48 h, unit not given | relative to: DMSO | viability | 1.14 and 0.861 and 0.967 |
| S=c1n(-c2ccccc2)c2c3ccccc3nc3[n+]2[n]1[Ir-3]12([S]3)([c]3cccc4ccc5ccc[n+]1c5c34)[c]1cccc3ccc4ccc[n+]2c4c13 | A549 | ICP-MS | – | 10 µM, 24 h, 37 °C | – | cellular iridium uptake | 5.57 ± 0.95 fmol/cell |
| O=C1NC2(CC2)COc2ncc(F)cc2[C@H]2COCCN2c2ccn3ncc1c3n2 | – | – | Sprague-Dawley rat, female, liver | oral, 5 mg/kg/day, 4 weeks, end of treatment | – | organ-to-body weight ratio | 3.54 ± 0.195% |
| CNC(=O)CC1CN(C(=O)c2ccc(C(F)(F)F)cn2)CCN1C(=O)c1cccnn1 (stereo not shown) | Huh-7-ACE2 | CellTiter-Glo | – | 0.000763 µM, 48 h, unit not given | relative to: DMSO | viability | 0.904 and 0.873 and 1.01 |
| Nc1nc2ccc(Oc3ccc4nc(N)sc4c3)cc2s1 | A549 | XTT | – | 500 µM, 20 h, 10% FBS | – | cell death | ~80% |
| CN(C)[C@H]1C[C@@]23CC[C@@]4(O2)C(=CC[C@]2(C)[C@@H](c5ccc6ccncc6c5)CC[C@H]24)C=C3[C@@H](O)[C@@H]1O | CDK14 (Homo sapiens, UniProt O94921) | ATP probe labelling, inhibitor, KiNativ profiling | – | 0.1 µM | – | inhibition | -4.5% |

Repeated from above:
| Compound | target or system | test | system | setting | how to read | quantity | result |
| --- | --- | --- | --- | --- | --- | --- | --- |
| CNC(=O)CC1CN(C(=O)c2ccc(C(F)(F)F)cn2)CCN1C(=O)c1cccnn1 (stereo not shown) | Huh-7-ACE2 | CellTiter-Glo | – | 0.000763 µM, 48 h, unit not given | relative to: DMSO | viability | 0.904 and 0.873 and 1.01 |
